Experimental data collected from several papers.
Compare with care: the assays were run in different laboratories.
EGFR: Epidermal growth factor receptor (EGFR, Homo sapiens, UniProt P00533)
EGFR L858R: Epidermal growth factor receptor (EGFR, Homo sapiens, UniProt P00533, L858R)

The remaining binding of `CNC(=O)C1CCN(c2cc(C)c(F)cc2NC(=O)c2ccc(-c3cc(O)ccc3C)c(C)c2)CC1` is reported as 46% (EGFR; binding, competition with immobilised ligand; 1 µM).
`CNC1C[S+]2CC[S+]3CC[S+](C1)[Ru-4]321([N]=C=S)[n]2c3ccc(OC)cc3c3c4c(c5cc(F)c[n+]1c5c32)C(=O)NC4=O` (stereo not shown) has a remaining binding of 100% (EGFR (Homo sapiens, UniProt P00533, G719S); KinomeScan; 0.1 µM; relative to: untreated).
For `Cc1ccc(-c2c(/C=C(\C#N)C(=O)NC(C)C)n(CCCO)c3ncnc(N)c23)cc1`, the remaining binding was 88% (EGFR (Homo sapiens, UniProt P00533, del746-750); cell-free assay, competition with immobilised ligand; 1 µM).
The remaining binding of `CCN1CCN(Cc2ccc(NC(=O)c3ccc(C)c(NC(=O)c4cncc(-c5cccs5)c4)c3)cc2C(F)(F)F)CC1` is reported as 1.1% (EGFR; binding, competition with immobilised ligand; 1 µM).
With `Nc1ncc2c(n1)-c1c([nH]c3ccc(C4=CCOCC4)cc13)CCC2` the remaining binding was 100% (EGFR; binding, competition with immobilised ligand; 1 µM).
With `COc1c(Cl)cccc1Nc1c(-c2ccncc2C#C[C@@]2(C)CCCN2C(=O)/C=C/CN(C)C)[nH]c2c1C(=O)NCC2` the remaining binding was 0% (EGFR (Homo sapiens, UniProt P00533, del752-759); cell-free assay, competition with immobilised ligand; 3 µM).
For `C=CC(=O)N1CCCC(n2c(=O)c3ncccc3n(Cc3ccc(Oc4ccccc4)cc3)c2=O)C1` (stereo not shown), the remaining binding was 91% (EGFR (Homo sapiens, UniProt P00533, L861Q); cell-free assay, competition with immobilised ligand; 1 µM).
`CCN1CCN(Cc2ccc(C(=O)Nc3ccc(C)c(NCc4cnc5[nH]ccc5c4OC)c3)cc2C(F)(F)F)CC1` gave a remaining binding of 72% (EGFR (Homo sapiens, UniProt P00533, L858R/T790M); binding, competition with immobilised ligand; 1 µM).
With `C=CC(=O)N1CCc2ccc(-n3c(=O)ccc4cnc5ccc(-c6cnn(C)c6)cc5c43)cc21` the remaining binding was 100% (EGFR L858R; KINOMEscan; 1 µM; relative to: DMSO control).
`CC(C)=CC1OC(C)(C)C2C=C3C(=O)C(Cl)=CC(O)C3C3C(O)C4OC4C(=O)C132` (stereo not shown) gave a remaining binding of 95% (EGFR L858R; cell-free assay, competition with immobilised ligand; 10 µM).
